{"data": "Results from different studies", "note": "A part holds a random share of what one study measured. “And” joins repeats or separate records; there may be more than shown."}
{"data": "Series 1", "target": "Mitogen-activated protein kinase kinase kinase 14 (MAP3K14, Homo sapiens, UniProt Q99558)", "effect on": "enzyme activity", "action": "inhibitor", "concentration": "0.5 µM", "reference": "control", "chain of UniProt Q99558 (whole entry, looked up)": "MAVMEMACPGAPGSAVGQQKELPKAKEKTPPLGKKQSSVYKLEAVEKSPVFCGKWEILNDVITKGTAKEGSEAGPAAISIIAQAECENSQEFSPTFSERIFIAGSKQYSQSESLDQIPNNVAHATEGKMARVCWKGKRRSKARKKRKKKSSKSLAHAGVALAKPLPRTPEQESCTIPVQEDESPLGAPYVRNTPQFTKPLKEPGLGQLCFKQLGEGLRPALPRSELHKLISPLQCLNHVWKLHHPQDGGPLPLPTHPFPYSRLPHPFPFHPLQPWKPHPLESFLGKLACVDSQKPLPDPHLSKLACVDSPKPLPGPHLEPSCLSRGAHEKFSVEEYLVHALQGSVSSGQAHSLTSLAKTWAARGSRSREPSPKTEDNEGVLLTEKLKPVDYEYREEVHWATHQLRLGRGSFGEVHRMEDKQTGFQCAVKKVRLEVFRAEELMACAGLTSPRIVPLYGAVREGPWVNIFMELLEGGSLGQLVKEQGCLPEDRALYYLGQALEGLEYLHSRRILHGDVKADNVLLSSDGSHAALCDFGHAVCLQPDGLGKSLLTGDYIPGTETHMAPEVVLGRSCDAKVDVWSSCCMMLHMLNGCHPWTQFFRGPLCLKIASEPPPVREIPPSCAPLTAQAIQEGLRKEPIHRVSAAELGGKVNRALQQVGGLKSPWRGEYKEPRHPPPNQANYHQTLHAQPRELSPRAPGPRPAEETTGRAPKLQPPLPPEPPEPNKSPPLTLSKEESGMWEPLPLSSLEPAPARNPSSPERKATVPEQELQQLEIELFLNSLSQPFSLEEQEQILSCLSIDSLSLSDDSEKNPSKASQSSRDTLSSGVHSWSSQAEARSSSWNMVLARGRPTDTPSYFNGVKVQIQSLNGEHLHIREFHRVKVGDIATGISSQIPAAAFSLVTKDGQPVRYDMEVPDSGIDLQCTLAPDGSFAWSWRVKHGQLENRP"}
{"Compound": "Nc1ncnc2n[nH]c(Nc3ccc(F)cc3)c12", "remaining activity [%]": 111}
{"Compound": "O=C1NC(=O)C(c2cn(CCCn3ccnc3)c3ccccc23)=C1Nc1ccccc1", "remaining activity [%]": 96.1}
{"Compound": "Cc1cccc(-c2[nH]c(C(C)(C)C)nc2-c2ccc3c(c2)OCO3)n1", "remaining activity [%]": 109}
{"Compound": "N#CC(C#N)=C(N)/C(C#N)=C/c1ccc(O)cc1", "remaining activity [%]": 108}
{"Compound": "O=c1c2ccccc2[nH]c(=S)n1CCN1CCC(=C(c2ccc(F)cc2)c2ccc(F)cc2)CC1", "remaining activity [%]": 75.7}
{"Compound": "Oc1ccc(-c2nc(-c3ccncc3)c(-c3ccc(F)cc3)[nH]2)cc1", "remaining activity [%]": 115}
{"Compound": "COc1cc2ncnc(Nc3ccc(F)c(Cl)c3)c2cc1OCCCN1CCOCC1", "remaining activity [%]": 104}
{"Compound": "O=S(=O)(c1cccc2cnccc12)N1CCCNCC1", "remaining activity [%]": 97.7}
{"Compound": "OCC(O)CCON=C1C(c2c(O)[nH]c3ccccc23)=Nc2ccccc21 (stereo not drawn)", "remaining activity [%]": 89}
{"Compound": "Cn1sc(=O)n(Cc2ccccc2)c1=O", "remaining activity [%]": 81.6}
{"Compound": "CC(C)[C@H](CO)Nc1nc(Nc2cc(N)cc(Cl)c2)c2ncn(C(C)C)c2n1", "remaining activity [%]": 100}
{"Compound": "Cc1ccc(Nc2nccc(N(C)c3ccc4c(C)n(C)nc4c3)n2)cc1S(N)(=O)=O", "remaining activity [%]": 104}
{"Compound": "COc1cc2nccc(Oc3ccc(NC(=S)NC(=O)c4ccccc4C)cc3)c2cc1OC", "remaining activity [%]": 106}
{"Compound": "CCOC(=O)c1c(C)[nH]c(/C=C2\\C(=O)Nc3ccccc32)c1C", "remaining activity [%]": 118}
{"Compound": "COc1ccc(OC)c2c(=S)c3ccccc3[nH]c12", "remaining activity [%]": 96}
{"data": "Series 2", "SMILES": "CC(C)(C(=O)O)[C@H](NC(=O)Cc1cccc(I)c1)c1ccc2oc(=O)[nH]c2c1", "technique": "Incucyte 3D growth", "concentration": "30 µM", "reading": "higher = more growth"}
{"cell line": "NCI-H1437", "time": "90 h", "spheroid area": "3e+07 a.u. and 2.94e+07 a.u. and 2.95e+07 a.u. and 2.5e+07 a.u. and 2.4e+07 a.u."}
{"cell line": "A375", "time": "438.52 h", "spheroid area": "1.81e+08 a.u. and 1.66e+08 a.u. and 1.6e+08 a.u. and 1.8e+08 a.u. and 1.72e+08 a.u. and 1.49e+08 a.u."}
{"cell line": "IPC-298", "time": "42 h", "spheroid area": "2.87e+07 a.u. and 2.82e+07 a.u. and 2.57e+07 a.u. and 2.03e+07 a.u. and 2.67e+07 a.u. and 2.3e+07 a.u."}
{"cell line": "IPC-298", "time": "78 h", "spheroid area": "3.14e+07 a.u. and 2.45e+07 a.u. and 3e+07 a.u. and 3.13e+07 a.u. and 2.77e+07 a.u. and 2.97e+07 a.u."}
{"cell line": "NCI-H358", "time": "186 h", "spheroid area": "7.87e+06 a.u. and 6.73e+06 a.u. and 7.12e+06 a.u. and 7.25e+06 a.u. and 7.38e+06 a.u."}
{"cell line": "MEL-JUSO", "time": "6.52 h", "spheroid area": "1.27e+07 a.u. and 7.36e+06 a.u. and 8.49e+06 a.u. and 8.84e+06 a.u. and 9.44e+06 a.u. and 8.72e+06 a.u."}
{"data": "Series 3", "Structure (SMILES)": "CC(=O)NCC(=O)N1[C@@H]2CC[C@H]1c1ccc(Nc3ncc(C(F)(F)F)c(NC4CCC4)n3)cc12", "concentration": "1 µM", "reference": "DMSO"}
{"cell line": "normal adjacent epithelium organoid sample D", "technique": "CellTiter-Glo", "viability [%]": 16.3}
{"cell line": "normal adjacent epithelium organoid sample F", "technique": "CellTiter-Glo", "viability [%]": 8.3}
{"cell line": "colorectal tumour organoids", "viability [%]": 34.8}
{"cell line": "normal adjacent epithelium organoid sample H", "technique": "CellTiter-Glo", "viability [%]": 14.8}
{"cell line": "normal adjacent epithelium organoid sample E", "technique": "CellTiter-Glo", "viability [%]": 26.2}
{"cell line": "normal adjacent epithelium organoid sample G", "technique": "CellTiter-Glo", "viability [%]": 11.6}
{"data": "Series 4", "organism": "Sarcocystis neurona", "effect on": "parasite activity", "concentration": "10 µM", "time": "96 h"}
{"Structure (SMILES)": "Cc1nccn1CC1CCc2c(c3ccccc3n2C)C1=O (stereo not drawn)", "activity class": "inactive"}
{"Structure (SMILES)": "C=CCc1ccc(O)c(-c2ccc(O)c(CC=C)c2)c1", "activity class": "inactive"}
{"Structure (SMILES)": "CC[C@H](C)C(=O)O[C@H]1C[C@H](O)C=C2C=C[C@H](C)[C@H](CC[C@@H](O)C[C@@H](O)CC(=O)O)[C@H]21", "activity class": "inactive"}
{"Structure (SMILES)": "Clc1ccc(COC(Cn2ccnc2)c2ccc(Cl)cc2Cl)cc1 (stereo not drawn)", "activity class": "inactive"}
{"Structure (SMILES)": "COc1cc2nc(N(C)CCCNC(=O)C3CCCO3)nc(N)c2cc1OC (stereo not drawn)", "activity class": "inactive"}
{"Structure (SMILES)": "Cc1ncc([N+](=O)[O-])n1CCO", "activity class": "inactive"}
{"note": "For quick reference, copied from above (series 1):"}
{"Compound": "N#CC(C#N)=C(N)/C(C#N)=C/c1ccc(O)cc1", "remaining activity [%]": 108}
{"Compound": "COc1cc2ncnc(Nc3ccc(F)c(Cl)c3)c2cc1OCCCN1CCOCC1", "remaining activity [%]": 104}
{"Compound": "Cc1ccc(Nc2nccc(N(C)c3ccc4c(C)n(C)nc4c3)n2)cc1S(N)(=O)=O", "remaining activity [%]": 104}
{"Compound": "Oc1ccc(-c2nc(-c3ccncc3)c(-c3ccc(F)cc3)[nH]2)cc1", "remaining activity [%]": 115}
